Measurements of several laboratories.
Parts stem from different laboratories: compare values within a part only. Changes are numbered by the printed parent chain.

Study 1
Target: Interferon regulatory factor 3, full length, phosphomimetic (IRF3, Homo sapiens, UniProt Q14653, residues 1-427, S386D/S396D/S398D/S402D/T404D/S405D)
Technique: protein-binding microarray
Form: double-stranded DNA, one strand shown
Medium: in vitro
Tested at: 2540 nM top
Setting: 60-bp whole probe
Together with: salmon DNA 0.4 mg/ml
Reference: random background probes
Reading: higher = stronger binding
Quantity: fitted relative affinity
All sequences stand within: GCCTAGCAC … GTCTTGATTCGCTTGACGCTGCTG
Residues (chain): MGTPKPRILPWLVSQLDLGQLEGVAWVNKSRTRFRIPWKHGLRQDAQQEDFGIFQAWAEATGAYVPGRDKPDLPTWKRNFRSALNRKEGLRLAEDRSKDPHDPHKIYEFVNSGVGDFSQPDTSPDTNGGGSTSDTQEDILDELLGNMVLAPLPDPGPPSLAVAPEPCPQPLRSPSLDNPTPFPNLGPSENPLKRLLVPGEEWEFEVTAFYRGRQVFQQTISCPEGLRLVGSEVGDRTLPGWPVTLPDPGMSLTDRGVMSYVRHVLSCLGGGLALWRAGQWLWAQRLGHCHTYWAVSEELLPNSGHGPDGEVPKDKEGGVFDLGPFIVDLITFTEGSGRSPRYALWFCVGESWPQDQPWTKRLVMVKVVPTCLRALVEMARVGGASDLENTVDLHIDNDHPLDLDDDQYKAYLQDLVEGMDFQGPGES
GACGAAATCAGTCTCGAGACGTGCTAG: 0.576 z-score
TGACTTTTGAGAGATGGAAACGTGCTA: 0.433 z-score
TCTATTTTCTGAATGTCTTCGTGCTAG: 1.98 z-score
TTAGAACTTAGTATCGATTAGTGCTAG: 0.625 z-score
TTAGCTATCCTTATCCTTTAGTGCTAG: 2.87 z-score
CTAGATATCGGGTTTCGATTAGTGCTA: 2.12 z-score
TCATTTTTCTTTAAAAGACTGTGCTAG: 2.06 z-score
CTCACCATCATCCTCACTGCGTGCTAG: 0.618 z-score
TTAGGACTGGGGTTTCGGTGAGTGCTA: 0.921 z-score
GACGAACTGAGAGTGGAGACGTGCTAG: -0.307 z-score
TTAGGTCTCGGTATTGGTTAGTGCTAG: 0.747 z-score
TTTCTTTTTGCACTCTCTACGTGCTAG: 4.03 z-score
TGGGAGCTCAGGAATCCCACGTGCTAG: -0.818 z-score
CTAAATATCTTTGTTGAAAAGTGCTAG: 0.679 z-score
TTAGAACTGGGGACTGGAATAGTGCTA: -0.743 z-score
GACGATTTCGGGACTGAAGACGTGCTA: 1.94 z-score
TACGGTTTCGGGACTGGGGACGTGCTA: 4.12 z-score
TTAAATTTCAGTTCCGATTAGTGCTAG: 3.85 z-score

Study 2
Target: CCNA1, cyclin fold, Cln2 fusion (human)
Technique: yeast growth competition, sequencing
Medium: yeast
Setting: weak parent motif
Reference: not given
Reading: higher = stronger binding
Quantity: normalised enrichment score
Starting sequence: CDC25A docking peptide (human); PPHRRRLLFACSP; partner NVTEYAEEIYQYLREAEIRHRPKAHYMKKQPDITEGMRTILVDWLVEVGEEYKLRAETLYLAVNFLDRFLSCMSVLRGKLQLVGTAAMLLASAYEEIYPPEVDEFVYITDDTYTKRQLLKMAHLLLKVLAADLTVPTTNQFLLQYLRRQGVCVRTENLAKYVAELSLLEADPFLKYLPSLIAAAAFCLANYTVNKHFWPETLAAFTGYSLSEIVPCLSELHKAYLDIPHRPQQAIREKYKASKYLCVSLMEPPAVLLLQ
R4I: 0.375
H3A: 0.192
F9P: 0.0295
P1F: 0.425
L7K: 0.484
L8F: 0.342
H3V: 0.453
F9L: 0.264
H3S: 0.518
R4C: 0.449
H3P: -0.0294
S12Y: 0.275
L8T: 0.441
A10S: 0.171
R5P: 0.174
L8H: 0.231
P13A: 0.32
L8G: 0.358
P2I: 0.241
S12C: 0.323
C11V: 0.521
P1C: -0.0239
P13N: 0.709
L7S: 0.126
R5F: 0.101

Study 3
Target: RNA binding protein fox-1 homolog 2, RRM domain, GST-SBP tag (RBFOX2, Homo sapiens, UniProt O43251-10, residues 100-194)
Technique: RNA Bind-n-Seq
Form: RNA
Medium: in vitro
Tested at: 365 nM
Setting: natural RNA segment, single round, ends assumed
Reference: no-protein control
Reading: higher = stronger binding
Quantity: RBNS enrichment (R)
All sequences stand within: GGGAGUUCUACAGUCCGACGAUC … UGGAAUUCUCGGGUGCCAA
Residues (chain): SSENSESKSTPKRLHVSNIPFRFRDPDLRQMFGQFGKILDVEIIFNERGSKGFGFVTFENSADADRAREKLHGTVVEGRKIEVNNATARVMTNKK
ACCGCAAAGCCCCCAGUCUUCAUGCAGACCUUGAACCCUCCGUCACACCCGCACCAUGUACUCCCAGGAACCUCCCACCUCUAUACCACCCAUUAAGUGGCUGCUGACUU: 0.659
AAGUGUUCAUUCUGCAUAGGUGUGAGGCUUUAUCUGCACACAGGACAUGAAAACCAGCAGAAAGGCCCUGAGCUGCUGCAUAGCCCCAUCUGAUUUCUGCAGUUCCCGCC: 0.562
UCUUUGUUUGGAAACUCCCUCAUCGACAUUGCUAUUGGAUUGUAAAGAGGGGCCCAGUAUCAGUUUGUUGAAUUUGUCAAAUCUUUUCCUGGACAUAAAUGAGACUAUUG: 1.3
UCUUUGCUGUCAAAAGCUACAUUGCACCCACAUGUCUGGAGUUCACACCACAAAUCUGCAGUUCAUUCUGUUUAUCCCAGGCAUUAAAUUCCUAAUUUCUCUAGAUAUUU: 0.33
UGGAAAGUUCCCACCUCACAGGGAAUGAAACCUAGGGAACACCAGGUACUCGGCGCCCUGUGGACUGUGUGGAAACUGAUUUUUCUUUUUUCUAUACUGAAUACCCUUUG: 0.282
UCUGUCUGCUUCCACAGUCUGCUUAAAAAACUGUCUGACUUCGUGAAUAUAGAGACCAAGUUUACCACUUCUGAUGAAGAGACCAAUUAAGAUUCAUUCCUCAUUCUGUU: 0.526
GCUUUCUGUGCAUGAACUAGAAAAGGAGACAUUAUAUUAAAUUAGCCACCUUUUGGCCCCUAAGCUCGCUUGUAAUGUGUCUUUCUUGGUGUCUUGCUGCCUUUCACUUU: 5.72
CUAUUCCAGCCAAAUGCAGGGAAACACUUUAUUUUGUUUGUUUUAGGUUUUGUUUUUCCUUGAGAGCCUUUUUUUAGGCCCCACAGACAGUGGUGGGUGGGGAGGCGAUA: 0.901

Study 4
Target: Sal-like protein 4, full length isoform B (SALL4, Homo sapiens, UniProt Q9UJQ4-2, residues 1-616)
Technique: universal PBM
Form: double-stranded DNA, one strand shown
Medium: in vitro
Tested at: not given
Setting: 8-mer, flanks averaged, mean of replicates
Reading: higher = stronger binding
Quantity: E-score
Construct (chain): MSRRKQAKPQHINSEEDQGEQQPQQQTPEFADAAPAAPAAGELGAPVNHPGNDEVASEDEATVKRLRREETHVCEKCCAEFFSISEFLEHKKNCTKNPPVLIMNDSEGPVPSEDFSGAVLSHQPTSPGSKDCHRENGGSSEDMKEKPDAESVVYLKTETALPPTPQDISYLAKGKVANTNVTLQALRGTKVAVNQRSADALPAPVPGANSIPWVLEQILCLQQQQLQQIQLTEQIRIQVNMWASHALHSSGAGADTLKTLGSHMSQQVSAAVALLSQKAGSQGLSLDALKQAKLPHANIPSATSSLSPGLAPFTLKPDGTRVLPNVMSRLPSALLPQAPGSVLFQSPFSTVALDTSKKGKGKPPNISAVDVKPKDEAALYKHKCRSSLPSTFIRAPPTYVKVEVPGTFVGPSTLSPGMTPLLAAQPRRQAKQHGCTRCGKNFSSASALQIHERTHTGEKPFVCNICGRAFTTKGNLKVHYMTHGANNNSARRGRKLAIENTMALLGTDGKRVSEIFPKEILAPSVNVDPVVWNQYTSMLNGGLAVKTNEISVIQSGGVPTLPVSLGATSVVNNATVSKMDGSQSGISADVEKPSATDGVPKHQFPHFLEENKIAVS
GGCTCTAA: -0.0466
AAAGCCGA: -0.173
CAATCGAG: -0.267
TAAACTGA: 0.117
GCCCGACA: -0.179
CAATTCCC: 0.012
CGCCAGGA: -0.183
AAGCGAAG: -0.0468
CCCCCCGC: -0.184
CGGGCACC: -0.24
CGGGGCGC: -0.419
GTCATCGA: 0.0622
CGATCCAG: -0.315
CGGCACTC: -0.234
CCCATGAC: -0.237
AGAAGTCT: 0.0223
GGTGAGTA: -0.013
ACACCTGC: 0.0161
AGATGCGG: -0.122
ATCTCGCC: -0.243
TCGCTACA: -0.106

Single results of other studies
PhoQ, residues 284 288 289 292 302 303 DDMDFR  fold induction (PhoP, residues 12 14 15 18 19 AQALL (Escherichia coli, UniProt P23836); Sort-seq, refers to: YFP reporter; E. coli; PhoQ-PhoP variant library, together with: 10 µM Mg2+; reference: high Mg2+ state, higher = stronger signaling): 1.08

Some of these lines once more (study 3):
ACCGCAAAGCCCCCAGUCUUCAUGCAGACCUUGAACCCUCCGUCACACCCGCACCAUGUACUCCCAGGAACCUCCCACCUCUAUACCACCCAUUAAGUGGCUGCUGACUU: 0.659
AAGUGUUCAUUCUGCAUAGGUGUGAGGCUUUAUCUGCACACAGGACAUGAAAACCAGCAGAAAGGCCCUGAGCUGCUGCAUAGCCCCAUCUGAUUUCUGCAGUUCCCGCC: 0.562
UCUUUGUUUGGAAACUCCCUCAUCGACAUUGCUAUUGGAUUGUAAAGAGGGGCCCAGUAUCAGUUUGUUGAAUUUGUCAAAUCUUUUCCUGGACAUAAAUGAGACUAUUG: 1.3
UCUUUGCUGUCAAAAGCUACAUUGCACCCACAUGUCUGGAGUUCACACCACAAAUCUGCAGUUCAUUCUGUUUAUCCCAGGCAUUAAAUUCCUAAUUUCUCUAGAUAUUU: 0.33
UGGAAAGUUCCCACCUCACAGGGAAUGAAACCUAGGGAACACCAGGUACUCGGCGCCCUGUGGACUGUGUGGAAACUGAUUUUUCUUUUUUCUAUACUGAAUACCCUUUG: 0.282
UCUGUCUGCUUCCACAGUCUGCUUAAAAAACUGUCUGACUUCGUGAAUAUAGAGACCAAGUUUACCACUUCUGAUGAAGAGACCAAUUAAGAUUCAUUCCUCAUUCUGUU: 0.526
GCUUUCUGUGCAUGAACUAGAAAAGGAGACAUUAUAUUAAAUUAGCCACCUUUUGGCCCCUAAGCUCGCUUGUAAUGUGUCUUUCUUGGUGUCUUGCUGCCUUUCACUUU: 5.72
CUAUUCCAGCCAAAUGCAGGGAAACACUUUAUUUUGUUUGUUUUAGGUUUUGUUUUUCCUUGAGAGCCUUUUUUUAGGCCCCACAGACAGUGGUGGGUGGGGAGGCGAUA: 0.901
